Published values of several laboratories.
Numbered parts are unrelated; each lists some results of a single study. Positions count from the first letter of the parent shown.

Series 1
Target: ABI1, truncated, D143A, DHFR fusion (Arabidopsis thaliana)
Method: DHFR PCA, deep sequencing
Matrix: yeast
Notes: methotrexate growth selection, single substitutions
With: (+)-ABA 17 µM
Relative to: wild-type fitted maximum
Direction: higher = stronger binding
Quantity: relative binding score
Parent: PYL1, truncated, DHFR fusion (Arabidopsis thaliana); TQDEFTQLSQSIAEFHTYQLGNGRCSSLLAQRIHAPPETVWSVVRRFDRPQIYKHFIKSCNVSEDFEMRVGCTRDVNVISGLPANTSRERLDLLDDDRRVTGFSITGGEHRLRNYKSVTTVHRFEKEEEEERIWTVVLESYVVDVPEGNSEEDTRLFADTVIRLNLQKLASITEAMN; partner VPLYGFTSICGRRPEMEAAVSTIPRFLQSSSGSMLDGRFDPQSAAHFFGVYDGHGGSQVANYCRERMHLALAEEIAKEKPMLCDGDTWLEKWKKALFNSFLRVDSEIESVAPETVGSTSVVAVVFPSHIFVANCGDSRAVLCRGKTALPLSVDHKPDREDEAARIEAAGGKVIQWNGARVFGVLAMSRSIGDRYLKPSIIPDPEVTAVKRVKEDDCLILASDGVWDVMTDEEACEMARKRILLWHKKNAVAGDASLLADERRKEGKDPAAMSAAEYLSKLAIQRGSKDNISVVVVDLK
Change = M176K; value = 81.8%
Change = R111W; value = 5.1%
Change = Q167H; value = 73.1%
Change = V78Q; value = 0.0208%
Change = K168S; value = 87.6%
Change = Q31C; value = 27.7%
Change = K168H; value = 82.3%
Change = L82H; value = 11.8%
Change = P83A; value = 61.1%
Change = I162D; value = -3.76%
Change = L82E; value = -4.31%
Change = V43I; value = 90.9%
Change = H55Y; value = 77.6%
Change = T154S; value = 15.4%
Change = M176E; value = 79.9%
Change = R32T; value = 83.5%

Series 2
Target: RNA binding protein fox-1 homolog 2, RRM domain, GST-SBP tag (RBFOX2, Homo sapiens, UniProt O43251-10, residues 100-194)
Method: RNA Bind-n-Seq
Molecule type: RNA
Matrix: in vitro
Tested at: 365 nM
Notes: natural RNA segment, single round, ends assumed
Relative to: no-protein control
Direction: higher = stronger binding
Quantity: RBNS enrichment (R)
Strand = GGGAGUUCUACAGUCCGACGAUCGAUCUAGUAAAACAAACAAGUUUUCAAAACAAGAGGAAGUCUGGAGUCUGCCGCUAAUUAAUCUUAUUUAUUGCAGCUUAUAAAUUGUGCAAUCUCUAUUUCAUUAUCCUUGGAAUUCUCGGGUGCCAA; value = 0.501
Strand = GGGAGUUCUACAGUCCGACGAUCAUAAUUGACUUAGUGAAAGACAGCUUCCCCUCUGUUUAGGUUCUCAGAUAUGUCCAGAGCAAAUUAGUCAUCCCCCGGUUGUGUUCAUAUUAACCACAAUCAUCUCUAGAUGGAAUUCUCGGGUGCCAA; value = 0.464
Strand = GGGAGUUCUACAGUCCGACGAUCCUUUCAGUUGGAGAGGCAGGUUGCUUUAAUGUCACUCUGACCUGCGUUGUUUGACUAUUUUAUAAUUUUGUUAUUAAAACAUCCAGGGUGAUUUCAUCUUUGUUCCUAGAUGGAAUUCUCGGGUGCCAA; value = 0.813
Strand = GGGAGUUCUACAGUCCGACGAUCCUCUUUGUGACCACAGGGUUGCAGGACGUUCUUGAAAGAUGUGUCACUAAAUGUUUGUUUUUGCUCAUCUCUUUCUGAGGUCAUCUGCAGAGAGUGCCCCAUGCCUUCUUUGGAAUUCUCGGGUGCCAA; value = 0.584
Strand = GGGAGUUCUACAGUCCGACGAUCUCAUGCAUGGAUCUUUAUGCAAUUUUUUUCCACUACCCAAGGUCUACCUUAGAUACUAGUUGUCUGAAUUGAGUUACUUUGAUAGGAAAAAUACUUCAUUACCUAAAAUCUGGAAUUCUCGGGUGCCAA; value = 1.37
Strand = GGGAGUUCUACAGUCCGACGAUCUUGCUUUUAUGAUUUUUUUUGGUUUGUUUUAAUAUCAGGUGGAUUUUUGUUUCUAAGCAAUAUAUACAUAAAAUCAACCAACAUAUCUGAAAAGGAUCAUGAAACCUGAGUGGAAUUCUCGGGUGCCAA; value = 0.435
Strand = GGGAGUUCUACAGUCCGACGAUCUAUCAGAAGAUUCAUUUACAGGGAGACAAGCUUGCUGCCCUAAUUCCCAGCUCUCCCCAGUGUCCAGAUCCUCUCUGGAAGAGACUAUAAAAUAAACGUGGGUGCCAGGGUGGAAUUCUCGGGUGCCAA; value = 0.615
Strand = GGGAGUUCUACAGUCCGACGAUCCAGAGCUAUUGUGGAGGGUCAGGAAGGGUGGAGAGGAGCUGGGUUGAAGCGGACUGCUGCGGAUGCAACUCCCAGCUUGCCCACCGCGGGCUGUCUGCUCUCCCUCCUAGUGGAAUUCUCGGGUGCCAA; value = 0.819

Series 3
Target: Interferon regulatory factor 3, full length, phosphomimetic (IRF3, Homo sapiens, UniProt Q14653, residues 1-427, S386D/S396D/S398D/S402D/T404D/S405D)
Method: protein-binding microarray
Molecule type: double-stranded DNA, one strand shown
Matrix: in vitro
Tested at: 2540 nM top
Notes: 60-bp whole probe
With: salmon DNA 0.4 mg/ml
Relative to: random background probes
Direction: higher = stronger binding
Quantity: fitted relative affinity
All sequences stand within: GCCTAGCAC … GTCTTGATTCGCTTGACGCTGCTG
Residues (chain): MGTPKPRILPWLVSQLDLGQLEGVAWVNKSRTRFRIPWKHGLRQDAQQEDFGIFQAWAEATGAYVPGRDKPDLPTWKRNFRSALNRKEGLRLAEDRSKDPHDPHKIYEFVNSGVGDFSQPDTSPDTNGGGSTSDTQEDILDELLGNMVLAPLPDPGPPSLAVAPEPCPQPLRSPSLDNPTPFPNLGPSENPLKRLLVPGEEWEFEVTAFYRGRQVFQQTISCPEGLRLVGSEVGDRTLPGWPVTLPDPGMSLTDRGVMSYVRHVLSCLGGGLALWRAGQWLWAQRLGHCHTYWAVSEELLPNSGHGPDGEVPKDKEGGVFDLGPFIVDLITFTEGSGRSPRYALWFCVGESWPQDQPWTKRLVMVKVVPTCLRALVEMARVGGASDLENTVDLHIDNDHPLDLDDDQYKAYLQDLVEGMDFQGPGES
Strand = GTTTTTCTCCTATTTAAGACGTGCTAG; value = 3.1 z-score
Strand = TGAGGACTGGACTTTCGGTTAGTGCTA; value = 0.889 z-score
Strand = TCACCGTTTCTTCTAGAACTGTGCTAG; value = 2.41 z-score
Strand = GACGAACTGGGGTATCTAGACGTGCTA; value = -0.44 z-score
Strand = TTAGGTCTCGAACTGGGTTAGTGCTAG; value = -0.16 z-score
Strand = TTAGGTCTCCTACTCCTTTAGTGCTAG; value = 1.95 z-score
Strand = GACGGACGGGGACTGGGGACGTGCTAG; value = -0.928 z-score
Strand = TCACCATTTTTTTTCACACTGTGCTAG; value = 1.24 z-score
Strand = GACGATATCGGGTTTTGAGACGTGCTA; value = 0.24 z-score
Strand = GATGGTTCCCTTTTCCTGACGTGCTAG; value = 6.47 z-score
Strand = TCAAACATCATTTTTCCACTGTGCTAG; value = 0.304 z-score
Strand = GACGGTAACGGGACTGGGGACGTGCTA; value = -0.654 z-score
Strand = GACGCTCTCCTTCTCCTGACGTGCTAG; value = 2.7 z-score
Strand = TTCACTATTGCTTCCTCTTTGTGCTAG; value = 0.552 z-score
Strand = TTAGGTATCCGGTATCGGTTAGTGCTA; value = 2.85 z-score
Strand = GACGATATCAGTAACGAGACGTGCTAG; value = 0.175 z-score
Strand = TTAGATTTCATACTGGATTAGTGCTAG; value = 1.15 z-score
Strand = GACAAACTGAGACTGGAGACGTGCTAG; value = -0.309 z-score

Series 4
Target: CCNB2, cyclin fold, Cln2 fusion (human)
Method: yeast growth competition, sequencing
Matrix: yeast
Notes: weak parent motif
Relative to: not given
Direction: higher = stronger binding
Quantity: normalised enrichment score
Parent: NPAT docking peptide (human); PCHRRVLCFDSTT; partner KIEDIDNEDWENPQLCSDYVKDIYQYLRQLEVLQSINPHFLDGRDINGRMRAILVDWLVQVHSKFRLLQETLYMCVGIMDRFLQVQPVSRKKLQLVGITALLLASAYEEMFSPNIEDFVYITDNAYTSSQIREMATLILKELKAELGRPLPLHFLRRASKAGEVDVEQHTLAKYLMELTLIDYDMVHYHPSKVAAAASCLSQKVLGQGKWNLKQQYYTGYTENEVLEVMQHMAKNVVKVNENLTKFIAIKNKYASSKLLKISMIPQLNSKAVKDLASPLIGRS
Change = PCHRRVLCFDSAT [T12A]; value = 0.0701
Change = PCHRRVLCADSTT [F9A]; value = 0.204
Change = PCHRRVLAFDSTT [C8A]; value = 0.257
Change = PCHRKVLCLDSTT [R5K F9L]; value = 0.368
Change = PCHRAVLCFDSTT [R5A]; value = 0.244
Change = ACHRRVLCFDSTT [P1A]; value = 0.00852
Change = PCHRRVLCFASTT [D10A]; value = 0.873

Excerpt of the above (series 1):
Change = P83A; value = 61.1%
Change = I162D; value = -3.76%
Change = L82E; value = -4.31%
Change = V43I; value = 90.9%
Change = H55Y; value = 77.6%
Change = T154S; value = 15.4%
Change = M176E; value = 79.9%
